Measured values of several laboratories.
Values joined by “and” are separate records of one study, mostly repeats; a detail may differ. ± gives the spread as reported.

| Structure (SMILES) | test | test system | conditions | how to read | endpoint | result |
| --- | --- | --- | --- | --- | --- | --- |
| CCCOC(=O)Cc1c(C)n(C(=O)c2ccc(Cl)cc2)c2ccc(OC)cc12 | hot plate test | BALB/c mice | 75 mg/kg, 60 min |  | latency of nociceptive response | 17.4 ± 1.02 s |
| C=C(c1cc(F)c(C(=O)O)c(F)c1)c1cc2c(cc1C)C(C)(C)CCC2(C)C | RNA sequencing, refers to: Nmu | rat, brain | dose not given, 24 h | reference: vehicle | log2 fold change | 0.44 |
| CCCCCCCOC(=O)Cc1c(C)n(C(=O)c2ccc(Cl)cc2)c2ccc(OC)cc12 | hot plate test | BALB/c mice | 75 mg/kg, 30 min |  | latency of nociceptive response | 16.1 ± 1.25 s |
| Cc1cc(O)c(C=O)c2c1C(=O)Oc1c(CO)c(O)c3c(c1O2)C(O)OC3=O (centres unmarked) | histopathology | rat, male, streptozotocin-induced diabetes, testis | 5 mg/kg, 9 weeks |  | seminiferous epithelium height | 56.2 ± 3.36 µm |
| O=[N+]([O-])c1cccc(S(=O)(=O)NC[C@@H](O)[C@@H]2CCc3cc(F)ccc3O2)c1 |  | rat, carrageenan paw oedema | oral, 100 mg/kg, 6 h after carrageenan |  | paw volume | 1.2 ± 0.38 mL |
| COc1ccc2nc3ccc(OC)cc3c(SCCCN)c2c1 |  | MPC-11, BALB/c mouse myeloma allograft, femur | intraperitoneal, 50 mg/kg thrice weekly | reference: vehicle | trabecular bone volume fraction | increased |
| OCc1cnn(-c2ccccc2)n1 | aPTT | human plasma | 10 µM |  | clotting time | 52 ± 0.9 s |
| C=C(c1ncc(C(=O)O)cn1)c1cc2c(cc1C)C(C)(C)CCC2(C)C | RNA sequencing, refers to: Pdk4 | rat, brain | dose not given, 24 h | reference: vehicle | log2 fold change | -0.44 |
| COc1ccc(C2CC(c3ccc(C)cc3)=Nc3ccccc3S2)cc1OC (centres unmarked) |  | Wistar rat, STZ-induced diabetes | oral, 20 mg/kg once daily, day 1 |  | blood glucose | 381 ± 4.21 mg/dL |
| CCOC(=O)C1=CN([C@@H]2O[C@H](CO)[C@@H](O)[C@H]2O)C=CC1 | western blot | HEK293 mitochondrial lysate | concentration not given, together with: SIRT5 | reference: no compound | protein succinylation level | decreased |
| CCCCCCCCCCCCCCCC(=O)N[C@@H](CCC(=O)NCCCC[C@H](NC(=O)[C@H](CC(=O)O)NC(=O)[C@H](CO)NC(=O)[C@@H](NC(=O)[C@H](Cc1ccccc1)NC(=O)[C@@H](NC(=O)CNC(=O)[C@H](CCC(N)=O)NC(=O)[C@H](CO)NC(=O)[C@@H](N)Cc1c[nH]cn1)[C@@H](C)O)[C@@H](C)O)C(=O)N[C@@H](CO)C(=O)N[C@@H](CCC(=O)O)C(=O)N[C@@H](Cc1ccc(O)cc1)C(=O)N[C@@H](CC(C)C)C(=O)N[C@@H](CC(=O)O)C(=O)N[C@@H](CO)C(=O)N[C@@H](CCC(=O)O)C(=O)N[C@@H](CCCNC(=N)N)C(=O)N[C@@H](C)C(=O)N[C@@H](CCCNC(=N)N)C(=O)N[C@@H](CC(=O)O)C(=O)N[C@@H](Cc1ccccc1)C(=O)N[C@H](C(=O)N[C@@H](C)C(=O)N[C@@H](Cc1c[nH]c2ccccc12)C(=O)N[C@@H](CC(C)C)C(=O)N[C@@H](CCC(=O)O)C(=O)N[C@@H](C)C(=O)NCC(=O)NCC(=O)O)C(C)C)C(=O)O | intraperitoneal glucose tolerance test | diet-induced obese mouse | subcutaneous, 30 nmol/kg daily, day 21, together with: glucose 1 g/kg intraperitoneal |  | glucose AUC | 1280 mmol·min/L |
| COc1cc(O)c(Cl)cc1/C=C/C(=O)c1ccc(C(F)(F)F)cc1 |  | mouse LPS acute lung injury, BALF | dose not given | reference: LPS alone | total cell count | decreased |
| COc1ccc(-n2cc(CO)nn2)cc1 | plasma recalcification time | human plasma | 1 µM |  | clotting time | 284 ± 4 s |
| CCOC(=O)CCC(NC(=O)C(NC(=O)c1c(C)nn(-c2cc[nH]c(=O)c2)c1C)C(C)C)C(=O)OCC (centres unmarked) | single-cell RNA sequencing | intratumoral CD45+ immune cells, C57BL/6 mice, B16-F10 tumour | dose not given, together with: anti-PD-L1 | reference: enantiomer | Ifng and Gzmb expression | increased |
| COc1ccc2c(c1)c(CC(=O)OCC(=O)OC(C)(C)C)c(C)n2C(=O)c1ccc(Cl)cc1 | hot plate test | BALB/c mice | 75 mg/kg, 90 min |  | latency of nociceptive response | 14.3 ± 0.75 s |
| C[C@H]1CN(C(=O)c2cn(-c3ccnc(N)n3)c3cc(C#CC4(O)CCCCC4)ccc23)CCN1 |  | B16-BL6, mice, lung metastasis model | intravenous, 50 mg/kg daily |  | mice with lung metastases | 9.2% |
| O/N=C/c1cnn(-c2ccccc2)n1 | prothrombin time | human plasma | 1 µM |  | clotting time | 15.4 ± 1 s |
| Cc1sc(-c2ccc(C(F)(F)F)cc2)nc1-c1nn[nH]c1C#N |  | male ZDF rat | oral, 10 mg/kg/day, 1008 h | reference: vehicle | HbA1c reduction | 1.3 percentage points |
| CC[C@H]1[C@@H](O)[C@@H]2[C@H](CC[C@]3(C)[C@@H]([C@H](C)CCOS(=O)(=O)[O-])CC[C@@H]23)[C@@]2(C)CC[C@@H](O)C[C@@H]12.[Na+] | histology | ob/ob NASH mouse model, liver | oral, 3 mg/kg once daily, 8 weeks | direction not given | NAFLD activity score | 5.9 ± 0.2 |
| CCOC(=O)C(Cc1cccc(O)c1)OC(=O)C=Cc1ccc(O)c(O)c1C=Cc1ccc(O)c(O)c1 (centres unmarked) |  | C57 wild-type mice, isoproterenol-induced myocardial ischemia, serum | oral, 10 mg/kg pretreatment for 7 days, together with: isoproterenol 3 mg/kg | reference: normal group | serum CK level | 112 ± 4% |
| CN1Cc2c(Cl)cc(Cl)cc2C(c2ccc(S(=O)(=O)NCCOCCOCCNC(=O)C(O)C(O)C(=O)NCCOCCOCCNS(=O)(=O)c3ccc(C4CN(C)Cc5c(Cl)cc(Cl)cc54)cc3)cc2)C1 (centres unmarked) |  | Sprague Dawley rats | oral, 3 mg/kg, 16 h |  | fecal water content | 59 % by weight |

| Structure (SMILES) | test | test system | conditions | how to read | endpoint | result |
| --- | --- | --- | --- | --- | --- | --- |
| O=C([O-])CN1CCN(CC(=O)[O-])CCN(CC(=O)NC[C@H]2CC[C@H](C(=O)N[C@H](Cc3cnc4ccccc4c3)C(=O)NCCCC[C@H](NC(=O)N[C@@H](CCC(=O)O)C(=O)O)C(=O)O)CC2)CCN(CC(=O)[O-])CC1.[64Cu+2] | Youden index, refers to: prostate cancer | prostate cancer patients, biopsy cores |  |  | optimal cut-off | 66 CPM |
| CCc1nnc(NS(=O)(=O)c2ccc(NC(=S)NC(=O)/C=C/c3ccc(F)cc3)cc2)s1 | immunostaining | athymic nude mouse, BE(2)-C xenograft, tumour | ip, 20 mg/kg daily, 3 weeks |  | IL-1β level | decreased |
| COc1c2c(cc3oc(CO)cc(=O)c13)O[C@H](C(C)(C)O)C2 | analgesic effect | Kunming mouse, female | oral, 1 mg/kg, 0 h, 55 °C, before dosing, 30 s cut-off |  | hot plate latency | 8.38 ± 0.89 s |
| CC(C)[C@H](NC(=O)CN)C(=O)N[C@@H](CCCCN)C(=O)NCC(=O)N[C@@H](CC(=O)O)C(=O)N[C@@H](CCCCN)C(=O)NCC(=O)N[C@@H](CC(N)=O)C(=O)N1CCC[C@H]1C(=O)NCC(=O)N[C@@H](Cc1c[nH]c2ccccc12)C(=O)N1CCC[C@H]1C(=O)NCC(=O)N[C@@H](C)C(=O)N1CCC[C@H]1C(=O)O |  | UV 2237 fibrosarcoma, mouse | 100 µg/mL coating, peptide-coated plates | reference: input cells | cell adhesion | 1.1% |
| CC(C)C[C@H](NC(=O)[C@H](Cc1ccccc1)NC(=O)[C@H](Cc1c[nH]cn1)NC(=O)CNC(=O)[C@H](CC(C)C)NC(=O)[C@@H](NC(=O)[C@@H](N)Cc1ccc(O)cc1)C(C)C)C(=O)N[C@@H](Cc1ccccc1)C(=O)N[C@@H](CC(=O)O)C(=O)N[C@@H](CCCNC(=N)N)C(=O)N[C@@H](Cc1ccccc1)C(=O)NCC(N)=O | skin pigmentation | Anolis carolinensis | intraperitoneal, 2 µg/g |  | time to darkening | 1 min |
| COc1cc(C(=O)OCCCN2CCCN(CCCOC(=O)c3cc(OC)c(OC)c(OCc4ccc([N+](=O)[O-])cc4)c3)CC2)cc(OC)c1OC | patch clamp | spinal lamina IIo neurons, STZ-treated mouse, spinal cord slices | 3 µM, 3 min |  | sEPSC frequency | decreased |
| Nc1nc2cnc(C(=O)N3CCOC[C@@H]3c3ccc(C(F)(F)F)cc3)cc2c2c1COC2 |  | human, serum | oral, 800 mg once daily |  | time to SDMA decline | ≤ 1 weeks |
| Cc1cc2c(c(=O)o1)C=C1CCC(C(C)CNCc3ccc(O)cc3)CC1O2 (centres unmarked) |  | 5xFAD mouse, 15-16 months, hippocampal slices | intraperitoneal, 25 mg/kg single dose, 24 h |  | LTP magnitude | increased |
| COc1cc(Cn2ccc3cc(C(=O)NCC45CC6CC(CC(C6)C4)C5)ccc32)ccc1C(=O)NO | immunohistochemistry, refers to: amyloid-beta | 5xFAD mouse, brain | intraperitoneal, 10 mg/kg once daily, 2 months | reference: vehicle | total plaque number | decreased |
| CC(=O)Oc1cc2c(s1)CCN(C(C(=O)C1CC1)c1ccccc1F)C2 (centres unmarked) | ADP-induced platelet aggregation, LTA, >59% aggregation | human patients, platelet-rich plasma | dose not given, 3 h, together with: ADP 20 µM |  | patients with high reactivity | 29% |
| CSCC[C@@H](NC(=O)[C@@H](CC(=O)O)NC(=O)[C@H](NC(=O)[C@@H](Cc1ccc(O)cc1)NC(=O)[C@@H](CC(N)=O)NC(=O)[C@H](N)CCCNC(=N)N)C(C)C)C(=O)N[C@H](Cc1ccccc1)C(=O)N[C@H](CCCCN)C(=O)O |  | C57BL/6 mice laser CNV | intravitreal, 20 ng or 2 µg, 10 days | reference: PBS | CNV volume | no effect |
| CC(=O)c1cnc(N)nc1N1CC[C@H]1c1nn2ccc(Cl)c2c(=O)n1-c1ccccc1 | B cell activation, inhibitor, refers to: CD86 | Wistar rat, blood | oral, 3 mg/kg twice at 0 and 8 h, 24 h, together with: anti-IgD |  | inhibition | 90% and > 90% |
| CCCCCCCCCCCCCCCC(=O)OCC(CSC[C@H](N)C(=O)N[C@@H](CO)C(=O)N[C@@H](CCCCN)C(=O)N[C@@H](CCCCN)C(=O)N[C@@H](CCCCN)C(=O)N[C@@H](CCCCN)C(=O)NCCCCCC(=O)N[C@@H](CCCCN)C(=O)N[C@@H](CC(C)C)C(=O)N[C@H](C(=O)N[C@@H](Cc1ccccc1)C(=O)N[C@@H](Cc1ccccc1)C(=O)N[C@@H](Cc1ccc2ccccc2c1)C(=O)O)C(C)C)OC(=O)CCCCCCCCCCCCCCC (some centres unmarked) |  | APP/PS1 mouse | intracortical, dose not given, 2 d | reference: vehicle | Iba1 staining | increased |
| C=C1C(=O)OC2C1CCC1(C)OC13CC1OC1(C)C23 (single isomer, unassigned) |  | sarcoma M-1, outbred white rat | intraperitoneal, maximum tolerated dose, daily, 5 days |  | tumour growth inhibition | 78 to 88% |
| O=S(=O)(c1ccccc1)N(CCc1nnc(S)o1)c1ccccc1 |  | rat | 100 mg/kg, 1 h, together with: carrageenan |  | paw edema inhibition | 19.4% |
| CCCCOCc1cn(-c2cc(Cl)ccc2Cl)nn1 | aPTT | human plasma | 10 µM |  | clotting time | 50.6 ± 10 s |
| Cc1cc(Nc2cc3ncccc3c(N[C@@H]3C[C@H]4CC[C@@H](C3)N4CCC#N)n2)n[nH]1 |  | moderate-severe ulcerative colitis patients | 20 mg, day 28 | reference: patients | endoscopic improvement | 20% |
| O=S(=O)(c1ccccc1)N(CCc1nnc(S)o1)c1ccc(Cl)cc1 |  | rat | 200 mg/kg, 5 h, together with: carrageenan |  | paw edema inhibition | 60.1% |
| Cc1ccc(N(O)/N=N/c2ccc(S(=O)(=O)Nc3nccs3)cc2)cc1 | paw oedema | rat, carrageenan oedema | oral, 100 mg/kg, 2 h after carrageenan | reference: vehicle | inhibition | 25.7% |
| CCC1CC2C(C)=CC3C(=O)CCCC3C=CC(C)=CC2C(=O)O1 (centres unmarked) | dot blot | 5XFAD transgenic mouse, hippocampus | oral, 30 mg/kg/day three times per week, 1 month, not significant | reference: vehicle | total soluble Aβ reduction | 23.6% |

Repeated from above:
| Structure (SMILES) | test | test system | conditions | how to read | endpoint | result |
| --- | --- | --- | --- | --- | --- | --- |
| CCCCOCc1cn(-c2cc(Cl)ccc2Cl)nn1 | aPTT | human plasma | 10 µM |  | clotting time | 50.6 ± 10 s |
| C=C(c1ncc(C(=O)O)cn1)c1cc2c(cc1C)C(C)(C)CCC2(C)C | RNA sequencing, refers to: Pdk4 | rat, brain | dose not given, 24 h | reference: vehicle | log2 fold change | -0.44 |
| CC(C)C[C@H](NC(=O)[C@H](Cc1ccccc1)NC(=O)[C@H](Cc1c[nH]cn1)NC(=O)CNC(=O)[C@H](CC(C)C)NC(=O)[C@@H](NC(=O)[C@@H](N)Cc1ccc(O)cc1)C(C)C)C(=O)N[C@@H](Cc1ccccc1)C(=O)N[C@@H](CC(=O)O)C(=O)N[C@@H](CCCNC(=N)N)C(=O)N[C@@H](Cc1ccccc1)C(=O)NCC(N)=O | skin pigmentation | Anolis carolinensis | intraperitoneal, 2 µg/g |  | time to darkening | 1 min |
| C=C1C(=O)OC2C1CCC1(C)OC13CC1OC1(C)C23 (single isomer, unassigned) |  | sarcoma M-1, outbred white rat | intraperitoneal, maximum tolerated dose, daily, 5 days |  | tumour growth inhibition | 78 to 88% |
| COc1cc(O)c(Cl)cc1/C=C/C(=O)c1ccc(C(F)(F)F)cc1 |  | mouse LPS acute lung injury, BALF | dose not given | reference: LPS alone | total cell count | decreased |
| O/N=C/c1cnn(-c2ccccc2)n1 | prothrombin time | human plasma | 1 µM |  | clotting time | 15.4 ± 1 s |
